Measurements from different studies.
Several values in a cell are separate wells, animals, samples, runs or records. ± gives the spread as reported.

| Structure (SMILES) | test | test system | conditions | scale | measurement | result |
| --- | --- | --- | --- | --- | --- | --- |
| COc1ncccc1-c1cnn2ccc(N3CCN(C(=O)OC(C)C)CC3)nc12 | – | mouse, formalin test, plasma | oral, 60 mg/kg, 60 min | – | drug concentration | 23 µM |
| CC[C@H](C)[C@H](NC(=O)[C@H](CCCCN)NC(=O)[C@H](CCC(=O)O)NC(=O)[C@H](CCCCN)NC(=O)[C@H](CO)NC(=O)[C@H](CCCCN)NC(=O)[C@H](CCCNC(=N)N)NC(=O)[C@H](Cc1ccccc1)NC(=O)[C@H](Cc1ccccc1)NC(=O)[C@H](CC(=O)O)NC(=O)CNC(=O)[C@H](CC(C)C)NC(=O)[C@@H](N)CC(C)C)C(=O)NCC(=O)N[C@@H](CCCCN)C(=O)N[C@@H](CCC(=O)O)C(=O)N[C@@H](Cc1ccccc1)C(=O)N[C@@H](CCCCN)C(=O)N[C@@H](CCCNC(=N)N)C(=O)N[C@H](C(=O)N[C@H](C(=O)N[C@@H](CCC(N)=O)C(=O)N[C@@H](CCCNC(=N)N)C(=O)N[C@H](C(=O)N[C@@H](CCCCN)C(=O)N[C@@H](CC(=O)O)C(=O)N[C@@H](Cc1ccccc1)C(=O)N[C@@H](CC(C)C)C(=O)N[C@@H](CCCNC(=N)N)C(=O)N[C@@H](CC(N)=O)C(=O)N[C@@H](CC(C)C)C(=O)N[C@H](C(=O)N1CCC[C@H]1C(=O)N[C@@H](CCCNC(=N)N)C(=O)N[C@H](C(=O)N[C@@H](CCC(=O)O)C(=O)N[C@@H](CO)C(=O)O)[C@@H](C)O)C(C)C)[C@@H](C)CC)C(C)C)[C@@H](C)CC | LC-MS | buffer with human neutrophil elastase | 40 µM, 120 min, pH 7.5, 37 °C | baseline: 0 h | remaining intact peptide | 1.39% and 1.87% |
| CO[C@H]1C[C@@H]2CC[C@@H](C)[C@@](O)(O2)C(=O)C(=O)N2CCCC[C@H]2C(=O)O[C@H]([C@H](C)C[C@@H]2CC[C@@H](OC(=O)NCCOCCOCCOCCOCCOCCOCCOCCOCCC(=O)N3CCc4cc(Cn5nc(-c6ccc7oc(N)nc7c6)c6c(N)ncnc65)ccc4C3)[C@H](OC)C2)C[C@@H](O)[C@H](C)/C=C(\C)[C@@H](O)[C@@H](OC)C(=O)[C@H](C)C[C@H](C)/C=C/C=C/C=C/1C | phase 1 dose escalation, measured: vomiting | advanced solid tumour patients | intravenous, 10 mg weekly, any grade | – | TRAE incidence | 12.5% |
| CC(C)[C@@H]1CC[C@@H](C)C[C@@H]1O | acute oral toxicity OECD | Swiss albino mice, serum | oral, 1000 mg/kg | – | aspartate aminotransferase | 56.3 ± 4.68 U/L |
| O=C(c1ccc(F)c(F)c1Nc1ccc(I)cc1F)N1CC(O)([C@@H]2CCCCN2)C1 | – | patients aged sample A to sample B years | oral, dose not given | – | SAE leading dose modification | 0% |
| CC(C)Nc1ccnc(Nc2cccc(-c3cccnc3)c2)n1 | measured: Glucose | mouse, blood | intraperitoneal, 5 mg/kg | – | blood chemistry | 229 mg/dL |
| NCCCC[C@@H]1NC(=O)[C@@H](Cc2c[nH]c3ccccc23)NC(=O)[C@H](c2ccccc2)NC(=O)[C@@H]2C[C@@H](OC(=O)NCCN)CN2C(=O)[C@H](Cc2ccccc2)NC(=O)[C@H](Cc2ccc(OCc3ccccc3)cc2)NC1=O | – | healthy volunteers, male | 1950 µg twice daily, 1.5 h, post hoc | – | placebo-corrected QTcF change | 12.8 ms |
| O=S(=O)(Nc1ccccc1)c1ccc(NC(=S)Nc2ccccc2)cc1 | measured: ALKP | female mouse, blood | oral, 5 mg/kg daily, 14 days | – | serum enzyme activity | 158 U/L |
| CN[C@@H](C)C(=O)N[C@H]1CN(S(=O)(=O)c2cccc(S(=O)(=O)N3CC[C@H]4CC[C@@H](C(=O)NC(c5ccccc5)c5ccccc5)N4C(=O)[C@@H](NC(=O)[C@H](C)NC)C3)c2)CC[C@H]2CC[C@@H](C(=O)NC(c3ccccc3)c3ccccc3)N2C1=O | – | patients with advanced solid tumours | 12 mg, phase I monotherapy | – | treatment-related pruritus incidence | 0% |
| CC[C@H](C)[C@H](NC(=O)[C@H](Cc1ccccc1)NC(=O)[C@H](CCC(=O)O)NC(=O)[C@H](CCCNC(=N)N)NC(=O)[C@H](C)NC(=O)[C@H](C)NC(=O)[C@H](CCC(N)=O)NC(=O)[C@H](CCC(=O)O)NC(=O)[C@H](CCC(=O)O)NC(=O)[C@H](CC(C)C)NC(=O)[C@H](Cc1ccc(O)cc1)NC(=O)[C@H](CO)NC(=O)[C@H](CO)NC(=O)[C@@H](NC(=O)[C@H](CC(=O)O)NC(=O)[C@H](CO)NC(=O)[C@@H](NC(=O)[C@H](Cc1ccccc1)NC(=O)[C@@H](NC(=O)CNC(=O)[C@H](CCC(=O)O)NC(=O)[C@H](C)NC(=O)CCc1cnc[nH]1)[C@@H](C)O)[C@@H](C)O)C(C)C)C(=O)N[C@@H](C)C(=O)N[C@@H](Cc1c[nH]c2ccccc12)C(=O)N[C@@H](CC(C)C)C(=O)N[C@H](C(=O)N[C@@H](CCCNC(=N)N)C(=O)NCC(=O)N[C@@H](CCCNC(=N)N)C(=O)N[C@@H](CCCCNC(=O)COCCOCCNC(=O)COCCOCCNC(=O)CC[C@H](NC(=O)CCCCCCCCCCCCCCCCC(=O)O)C(=O)O)C(=O)NCC(=O)NCC(=O)N[C@@H](CO)C(=O)N[C@@H](CCCCNC(=O)[C@H](CCCCNc1c(NCCCCCN(O)C(=O)CCC(=O)NCCCCCN(O)C(=O)CCC(=O)NCCCCCN(O)C(C)=O)c(=O)c1=O)Nc1c(NCCCCCN(O)C(=O)CCC(=O)NCCCCCN(O)C(=O)CCC(=O)NCCCCCN(O)C(C)=O)c(=O)c1=O)C(=O)O)C(C)C [zirconium-89 labelled] | ex vivo gamma counting | male Sprague-Dawley rats, duodenum | intravenous, 1 nmol, 24 h | – | tissue uptake | 0.263 %ID/g |
| [O-][S+]1CCc2nc(N3CCC(c4ncc(Cl)cn4)CC3)nc(NC3(CO)CCC3)c21 (centres unmarked) | measured: oral hypoaesthesia | healthy male humans | 48 mg single dose | – | adverse event incidence | 0% |
| Cc1cccc(Cn2nc(C3CC3)c3c(NC(=O)c4cnc5cc(OCCN6CCN(C)CC6)ccn45)cccc32)n1 | measured: ALT increased | human advanced solid tumours | oral, 400 mg, all-causality | – | adverse events incidence | 28.6% |
| O=C1Nc2cc3[nH]nc(-c4ccncc4)c3cc2CN1Cc1ccccc1 | CTCAE v4.03 | human, relapsed or refractory advanced solid tumours | intravenous, 4.8 mg/kg, pooled schedules | – | patients with nausea | 50% |
| CC(C)[C@@H]1NC(=O)CNC(=O)[C@H](CC(N)=O)NC(=O)[C@H](CCCNC(=N)N)NC(=O)[C@H](Cc2ccc(O)cc2)NC(=O)[C@H](C(C)C)NC(=O)[C@@H](NC(=O)[C@@H](NC(=O)[C@H](CC(N)=O)NC(=O)[C@H](Cc2c[nH]c3ccccc23)NC(=O)[C@H](C)NC(=O)[C@H](Cc2ccccc2)NC(=O)CN)C(C)C)CSSC[C@@H](C(=O)N[C@@H](Cc2cnc[nH]2)C(=O)N[C@@H](CCCNC(=N)N)C(=O)N[C@@H](CCCNC(=N)N)C(=O)N[C@@H](C)C(=O)N[C@@H](CC(N)=O)C(N)=O)NC(=O)[C@H](C(C)C)NC(=O)[C@H](CCCNC(=N)N)NC1=O | – | ICR mice, serum | intraductal mammary, 5 mg/kg, day 5 | – | total protein | 54 ± 1.11 g/L |

Some of these lines once more:
| Structure (SMILES) | test | test system | conditions | scale | measurement | result |
| --- | --- | --- | --- | --- | --- | --- |
| O=C1Nc2cc3[nH]nc(-c4ccncc4)c3cc2CN1Cc1ccccc1 | CTCAE v4.03 | human, relapsed or refractory advanced solid tumours | intravenous, 4.8 mg/kg, pooled schedules | – | patients with nausea | 50% |
| O=C(c1ccc(F)c(F)c1Nc1ccc(I)cc1F)N1CC(O)([C@@H]2CCCCN2)C1 | – | patients aged sample A to sample B years | oral, dose not given | – | SAE leading dose modification | 0% |
